Results pooled from the literature.
Lines come from different studies, so protocols differ. ± gives the spread as reported.
BCHE: Cholinesterase (BCHE, Equus caballus, UniProt P81908)
Chain of UniProt P81908 (whole entry, looked up): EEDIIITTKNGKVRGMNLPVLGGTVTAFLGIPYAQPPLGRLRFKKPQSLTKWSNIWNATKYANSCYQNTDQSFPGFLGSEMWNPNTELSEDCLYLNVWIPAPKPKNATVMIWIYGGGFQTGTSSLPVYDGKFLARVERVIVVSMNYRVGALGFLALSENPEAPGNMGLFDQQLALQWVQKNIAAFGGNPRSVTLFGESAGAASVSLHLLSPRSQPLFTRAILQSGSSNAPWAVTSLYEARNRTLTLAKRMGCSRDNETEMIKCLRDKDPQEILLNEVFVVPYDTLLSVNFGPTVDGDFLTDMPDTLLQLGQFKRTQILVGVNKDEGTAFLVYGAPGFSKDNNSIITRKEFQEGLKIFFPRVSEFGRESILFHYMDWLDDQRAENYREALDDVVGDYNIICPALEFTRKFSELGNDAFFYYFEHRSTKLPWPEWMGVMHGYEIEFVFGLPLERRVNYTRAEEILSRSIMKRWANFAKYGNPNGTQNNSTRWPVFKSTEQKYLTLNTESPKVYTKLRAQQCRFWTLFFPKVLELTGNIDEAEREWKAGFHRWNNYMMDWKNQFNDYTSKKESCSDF
Chain of UniProt P25101 (whole entry, looked up): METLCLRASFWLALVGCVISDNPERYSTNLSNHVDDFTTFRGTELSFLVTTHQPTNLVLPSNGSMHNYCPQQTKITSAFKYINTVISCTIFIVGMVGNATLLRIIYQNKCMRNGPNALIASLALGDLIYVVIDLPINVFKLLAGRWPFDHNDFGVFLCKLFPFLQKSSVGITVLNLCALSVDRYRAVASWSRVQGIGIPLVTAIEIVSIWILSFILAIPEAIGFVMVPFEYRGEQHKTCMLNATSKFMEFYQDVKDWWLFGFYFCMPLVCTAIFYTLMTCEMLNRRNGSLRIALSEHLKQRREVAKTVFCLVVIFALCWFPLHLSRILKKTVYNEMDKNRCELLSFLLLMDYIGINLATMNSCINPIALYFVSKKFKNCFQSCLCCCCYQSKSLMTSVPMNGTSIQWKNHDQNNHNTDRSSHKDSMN
Chain of UniProt Q9UGN5 (whole entry, looked up): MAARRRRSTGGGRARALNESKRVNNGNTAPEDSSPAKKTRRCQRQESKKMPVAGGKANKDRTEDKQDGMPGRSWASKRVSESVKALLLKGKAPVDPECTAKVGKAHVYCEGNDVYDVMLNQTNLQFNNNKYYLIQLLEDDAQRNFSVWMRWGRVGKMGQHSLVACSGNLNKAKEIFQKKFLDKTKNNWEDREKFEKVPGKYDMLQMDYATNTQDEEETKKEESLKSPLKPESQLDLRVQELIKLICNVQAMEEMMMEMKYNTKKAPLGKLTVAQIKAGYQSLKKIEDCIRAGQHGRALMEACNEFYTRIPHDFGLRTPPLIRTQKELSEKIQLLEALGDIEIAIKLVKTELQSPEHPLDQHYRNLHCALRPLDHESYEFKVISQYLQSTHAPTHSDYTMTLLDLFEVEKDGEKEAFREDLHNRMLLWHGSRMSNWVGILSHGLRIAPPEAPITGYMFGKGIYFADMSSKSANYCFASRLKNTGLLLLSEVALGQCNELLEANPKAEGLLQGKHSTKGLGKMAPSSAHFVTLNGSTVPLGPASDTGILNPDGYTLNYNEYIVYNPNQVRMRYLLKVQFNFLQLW
Chain of UniProt O43318 (whole entry, looked up): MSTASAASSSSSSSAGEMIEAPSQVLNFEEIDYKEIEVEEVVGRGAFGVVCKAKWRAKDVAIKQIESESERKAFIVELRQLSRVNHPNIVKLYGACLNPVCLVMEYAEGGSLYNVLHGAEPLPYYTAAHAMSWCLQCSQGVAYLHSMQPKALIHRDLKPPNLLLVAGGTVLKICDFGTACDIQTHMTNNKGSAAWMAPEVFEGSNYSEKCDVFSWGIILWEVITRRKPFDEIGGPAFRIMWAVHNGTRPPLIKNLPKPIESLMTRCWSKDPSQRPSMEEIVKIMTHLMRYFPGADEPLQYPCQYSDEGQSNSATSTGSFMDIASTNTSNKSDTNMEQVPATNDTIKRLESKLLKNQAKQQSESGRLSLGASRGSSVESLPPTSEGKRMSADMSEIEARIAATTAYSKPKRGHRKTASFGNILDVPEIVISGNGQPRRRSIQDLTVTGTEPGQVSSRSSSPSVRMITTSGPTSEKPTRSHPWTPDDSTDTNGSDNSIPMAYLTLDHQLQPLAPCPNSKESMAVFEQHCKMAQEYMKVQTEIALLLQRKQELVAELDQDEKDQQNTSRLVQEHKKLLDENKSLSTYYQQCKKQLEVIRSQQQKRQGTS
Chain of UniProt Q07002 (whole entry, looked up): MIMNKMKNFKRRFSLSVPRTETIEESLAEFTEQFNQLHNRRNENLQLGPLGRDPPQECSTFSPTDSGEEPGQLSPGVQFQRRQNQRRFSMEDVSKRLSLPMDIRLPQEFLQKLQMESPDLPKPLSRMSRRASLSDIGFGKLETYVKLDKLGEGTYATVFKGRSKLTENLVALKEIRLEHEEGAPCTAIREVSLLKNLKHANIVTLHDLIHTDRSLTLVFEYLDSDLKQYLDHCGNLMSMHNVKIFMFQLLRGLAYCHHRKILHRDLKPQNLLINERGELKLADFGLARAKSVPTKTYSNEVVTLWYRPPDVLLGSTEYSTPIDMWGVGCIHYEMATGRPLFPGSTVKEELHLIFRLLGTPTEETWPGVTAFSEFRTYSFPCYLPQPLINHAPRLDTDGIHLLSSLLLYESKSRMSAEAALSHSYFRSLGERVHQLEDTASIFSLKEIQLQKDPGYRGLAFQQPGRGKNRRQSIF
Chain of UniProt P12822 (whole entry, looked up): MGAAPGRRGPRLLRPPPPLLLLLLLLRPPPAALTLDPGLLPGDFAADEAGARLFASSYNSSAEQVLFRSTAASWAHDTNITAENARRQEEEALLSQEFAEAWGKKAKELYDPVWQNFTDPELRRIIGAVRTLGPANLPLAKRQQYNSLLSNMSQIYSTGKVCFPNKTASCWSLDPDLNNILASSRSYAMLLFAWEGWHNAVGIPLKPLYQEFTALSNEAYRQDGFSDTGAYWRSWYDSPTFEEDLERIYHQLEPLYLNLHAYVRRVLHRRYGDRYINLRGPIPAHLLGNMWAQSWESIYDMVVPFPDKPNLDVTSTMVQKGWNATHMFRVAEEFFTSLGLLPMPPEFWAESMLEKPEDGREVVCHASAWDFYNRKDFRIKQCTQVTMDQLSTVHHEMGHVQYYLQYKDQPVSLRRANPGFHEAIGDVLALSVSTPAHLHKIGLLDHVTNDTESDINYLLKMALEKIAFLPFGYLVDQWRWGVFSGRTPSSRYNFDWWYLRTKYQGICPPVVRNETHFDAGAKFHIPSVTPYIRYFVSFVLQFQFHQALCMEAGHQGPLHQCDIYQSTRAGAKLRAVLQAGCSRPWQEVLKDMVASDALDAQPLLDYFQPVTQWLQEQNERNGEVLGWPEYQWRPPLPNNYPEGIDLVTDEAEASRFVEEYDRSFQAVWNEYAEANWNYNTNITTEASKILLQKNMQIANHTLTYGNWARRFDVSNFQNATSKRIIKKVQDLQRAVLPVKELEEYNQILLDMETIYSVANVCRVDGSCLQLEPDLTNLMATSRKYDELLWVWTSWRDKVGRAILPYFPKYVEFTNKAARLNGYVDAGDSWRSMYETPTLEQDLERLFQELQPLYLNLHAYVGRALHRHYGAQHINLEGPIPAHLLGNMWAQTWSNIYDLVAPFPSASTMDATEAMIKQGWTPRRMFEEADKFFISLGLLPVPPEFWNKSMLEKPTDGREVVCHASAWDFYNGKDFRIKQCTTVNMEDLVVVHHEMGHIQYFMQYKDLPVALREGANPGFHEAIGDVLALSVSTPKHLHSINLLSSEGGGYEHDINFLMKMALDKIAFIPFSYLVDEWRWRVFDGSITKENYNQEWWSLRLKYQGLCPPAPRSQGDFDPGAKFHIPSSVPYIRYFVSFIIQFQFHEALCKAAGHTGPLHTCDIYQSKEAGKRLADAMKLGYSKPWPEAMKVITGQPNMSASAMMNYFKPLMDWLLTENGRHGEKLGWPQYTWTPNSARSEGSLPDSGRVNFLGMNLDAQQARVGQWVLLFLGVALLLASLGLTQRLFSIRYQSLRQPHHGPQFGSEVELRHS
Chain of UniProt P80192 (whole entry, looked up): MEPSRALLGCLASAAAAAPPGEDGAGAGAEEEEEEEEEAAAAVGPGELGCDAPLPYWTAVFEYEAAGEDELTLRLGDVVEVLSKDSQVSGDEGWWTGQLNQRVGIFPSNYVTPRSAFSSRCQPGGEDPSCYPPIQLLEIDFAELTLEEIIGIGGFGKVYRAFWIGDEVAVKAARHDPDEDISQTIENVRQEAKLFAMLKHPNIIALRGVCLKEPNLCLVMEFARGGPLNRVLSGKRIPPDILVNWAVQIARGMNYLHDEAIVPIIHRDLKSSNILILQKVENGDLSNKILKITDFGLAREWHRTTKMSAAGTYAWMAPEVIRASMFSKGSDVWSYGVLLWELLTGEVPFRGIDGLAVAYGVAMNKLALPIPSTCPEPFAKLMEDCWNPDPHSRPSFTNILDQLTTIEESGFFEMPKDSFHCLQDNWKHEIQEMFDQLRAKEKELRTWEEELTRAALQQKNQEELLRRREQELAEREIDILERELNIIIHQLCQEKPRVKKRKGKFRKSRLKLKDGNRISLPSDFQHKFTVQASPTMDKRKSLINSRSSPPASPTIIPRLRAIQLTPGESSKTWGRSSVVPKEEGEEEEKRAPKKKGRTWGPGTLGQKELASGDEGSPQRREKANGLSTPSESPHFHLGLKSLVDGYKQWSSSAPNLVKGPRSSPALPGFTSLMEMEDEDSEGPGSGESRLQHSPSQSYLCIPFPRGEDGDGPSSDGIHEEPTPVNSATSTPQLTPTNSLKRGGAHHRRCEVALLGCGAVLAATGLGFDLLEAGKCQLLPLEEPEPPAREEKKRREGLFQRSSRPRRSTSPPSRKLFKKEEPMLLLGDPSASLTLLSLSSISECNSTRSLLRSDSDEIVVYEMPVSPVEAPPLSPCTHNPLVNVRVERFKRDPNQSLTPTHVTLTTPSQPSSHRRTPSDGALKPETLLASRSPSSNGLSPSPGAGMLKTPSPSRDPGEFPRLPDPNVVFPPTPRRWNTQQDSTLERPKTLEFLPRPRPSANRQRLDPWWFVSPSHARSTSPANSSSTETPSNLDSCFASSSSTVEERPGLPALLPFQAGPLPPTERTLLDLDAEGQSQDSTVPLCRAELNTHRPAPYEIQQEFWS

Structure (SMILES) | target or system | test | test system | conditions | quantity | result
NCCc1ccc(F)cc1 | BCHE | enzyme activity, inhibitor, Ellman |  | 20 µM | inhibition | 35.7%
COc1ccc(F)cc1S(=O)(=O)Nc1cnc2c(c1)C(=O)NCCO2 | adrenergic alpha1A receptor | radioligand binding |  | 10 µM | inhibition | -1%
COc1ccccc1-n1cc(CCS(=O)(=O)F)nn1 | BCHE | enzyme activity, inhibitor, Ellman's method | horse serum BuChE | 20 µM | inhibition | 21.2 ± 0.8%
CN(C)[C@H]1C[C@@]23CC[C@@]4(O2)C(=CC[C@]2(C)[C@@H](c5ccc6ccncc6c5)CC[C@H]24)C=C3[C@@H](O)[C@@H]1O | Mitogen-activated protein kinase kinase kinase 7 (MAP3K7, Homo sapiens, UniProt O43318) | ATP probe labelling, inhibitor, KiNativ profiling |  | 0.1 µM | inhibition | 7.3%
CS(C)(=O)=Nc1ccc(-c2ccc(-c3nc4cc(O[C@@H]5CO[C@H]6[C@@H]5OC[C@H]6O)[nH]c4cc3F)cc2)cc1 | GABA-gated chloride channel | binding |  | 10 µM | inhibition | 30%
Cc1cc(OCC(=O)NCCNC(=O)c2cccc(COc3ccccc3C(N)=O)c2)c2c3c(c(=O)oc2c1)CCC3 | Poly [ADP-ribose] polymerase 2 (PARP2, Homo sapiens, UniProt Q9UGN5) | enzyme activity, inhibitor |  | 0.5 µM | inhibition | 99%
O=C(CN1CN(c2ccccc2)C2(CCN(C(=O)c3cnc4[nH]ncc4c3)CC2)C1=O)NCC(F)(F)F | Epidermal growth factor receptor (EGFR, Homo sapiens, UniProt P00533, L858R) | inhibitor |  | concentration not given | inhibition | < 50%
Cc1ccc2c(n1)c(-c1cccc(S(C)(=O)=O)c1)c(C)n2C/C(F)=C/CN | Angiotensin-converting enzyme (ACE, Oryctolagus cuniculus, UniProt P12822) | ligand displacement |  | 10 µM | inhibition | 3%
O=C1NC2(CC2)COc2ncc(F)cc2[C@H]2COCCN2c2ccn3ncc1c3n2 |  |  | Sprague-Dawley rat, female, brain | oral, 20 mg/kg/day, 4 weeks | organ weight | 1.89 ± 0.099 g
CN[C@@H]1[C@H](O)[C@H](NC)[C@H]2O[C@]3(O)[C@H](O[C@@H]2[C@H]1O)O[C@H](C)C[C@H]3NC(=O)Cc1ccc(Cl)cn1 | Endothelin-1 receptor (EDNRA, Homo sapiens, UniProt P25101) | ligand displacement, radioligand |  | 10 µM | inhibition | -8%
CCOC(=O)[C@](CC)(CCCSCCOCCOCCNC(=O)c1ccc(-c2c3ccc(=N)c(S(=O)(=O)O)c-3oc3c(S(=O)(=O)O)c(N)ccc23)c(C(=O)O)c1)NC(=O)c1ccc(C2CC2)c(Cc2ccc(F)cc2)n1 | Histamine H3 receptor (HRH3, Homo sapiens, UniProt Q9Y5N1) | ligand displacement, radioligand |  | 10 µM | inhibition | -1%
CC(=O)NC[C@@H]1[C@@H](O)C[C@H]2[C@H](O)C[C@@H](CO)N12 | Spodoptera litura β-N-acetylglucosaminidase |  | crude enzyme | 3.42 µM, run 1, with: p-nitrophenyl GlcNAc | inhibition | 86.8%
C[C@H](NCc1ccc(-c2ccc(C(F)(F)F)cc2)cc1)C(N)=O | Mitogen-activated protein kinase kinase kinase 9 (MAP3K9, Homo sapiens, UniProt P80192) | cell-free assay, competition with immobilised ligand |  | 1 µM | inhibition | 9%
COc1ccccc1N1CCN(CCCCN2CCCc3ccccc3C2=O)CC1 | 5-hydroxytryptamine receptor 5A (HTR5A, Homo sapiens, UniProt P47898) | radioligand binding |  | concentration not given, with: [3H]LSD | inhibition | 72.8%
N[C@H](C(=O)N1CCCC1)C1CCN(c2nccc3c(-c4ncc(Cl)cc4Cl)cccc23)CC1 | Angiotensin-converting enzyme (ACE, Homo sapiens, UniProt P12821) | enzyme activity, inhibitor |  | 10 µM | inhibition | 18%
COc1cc([N+](=O)[O-])ccc1-n1cc(CCS(=O)(=O)F)nn1 | BCHE | Ellman | horse | 20 µM | inhibition | 33.9 ± 2%
OC[C@H]1O[C@@H](Oc2cccc(-c3ccccc3)c2)[C@H](O)[C@@H](O)[C@H]1O | Adhesin FmlH, lectin domain (Escherichia coli, UniProt Q1RBS0) | binding to desialylated mucin, ELISA competition | UPEC UTI89 | 10 µM, with: desialylated bovine submaxillary mucin | inhibition | 7.8 ± 5.5%
CN(/N=C/c1ccccc1C(=O)O)c1nc(-c2ccccc2Cl)cs1 | Cyclin-dependent kinase 18, with cyclin Y (CDK18, Homo sapiens, UniProt Q07002) | enzyme activity, inhibitor |  | 1 µM | inhibition | -16.2%
Cc1cc(-c2ccc3ccccc3c2)nnc1NCCN1CCN(C)CC1 | Bile salt export pump (ABCB11, Homo sapiens, UniProt O95342) | transport |  | concentration not given | inhibition | negative
CCN(CC)CCOc1ccc(-c2nnn(Cc3ccc(OC)cc3)c2N)cc1 | L-type calcium channel (rat) | radioligand binding | cerebral cortex | 10 µM, with: 10000 nM radioligand | inhibition | -6.34%
CC(C)[C@H]1NC(=O)C[C@H]2/C=C/CCSSC[C@@H](NC1=O)C(=O)N[C@H](Cc1cccc3ccccc13)C(=O)NCC(=O)O2 | Calcium/calmodulin-dependent protein kinase type 1D (CAMK1D, Homo sapiens, UniProt Q8IU85) | enzyme activity, inhibitor |  | 10 µM | inhibition | 18.2%
CCC1CC(c2ccc(C(=O)O)cc2C)=NN1c1ccc(C#N)c(Cl)c1 (centres unmarked) | MLL4-WDR5 complex |  |  | 10 µM | inhibition | 42%
O=C(O)c1ccccc1/C=N/Nc1nc(-c2ccccc2Cl)cs1 | Cyclin-dependent kinase 1, with cyclin E1 (CDK1, Homo sapiens, UniProt P06493) | enzyme activity, inhibitor |  | 1 µM | inhibition | -4.38%

Repeated from above:
Structure (SMILES) | target or system | test | test system | conditions | quantity | result
OC[C@H]1O[C@@H](Oc2cccc(-c3ccccc3)c2)[C@H](O)[C@@H](O)[C@H]1O | Adhesin FmlH, lectin domain (Escherichia coli, UniProt Q1RBS0) | binding to desialylated mucin, ELISA competition | UPEC UTI89 | 10 µM, with: desialylated bovine submaxillary mucin | inhibition | 7.8 ± 5.5%
CN(C)[C@H]1C[C@@]23CC[C@@]4(O2)C(=CC[C@]2(C)[C@@H](c5ccc6ccncc6c5)CC[C@H]24)C=C3[C@@H](O)[C@@H]1O | Mitogen-activated protein kinase kinase kinase 7 (MAP3K7, Homo sapiens, UniProt O43318) | ATP probe labelling, inhibitor, KiNativ profiling |  | 0.1 µM | inhibition | 7.3%
COc1ccccc1-n1cc(CCS(=O)(=O)F)nn1 | BCHE | enzyme activity, inhibitor, Ellman's method | horse serum BuChE | 20 µM | inhibition | 21.2 ± 0.8%
